Published values of several laboratories.
Numbered parts are unrelated; each lists some results of a single study. Changes are numbered by the printed parent chain.

Study 1
Substitution: H122F
Target: ABI1, truncated, D143A, DHFR fusion (Arabidopsis thaliana)
Method: DHFR PCA, deep sequencing
Matrix: yeast
Notes: methotrexate growth selection, single substitutions
Reference: wild-type fitted maximum
Direction: higher = stronger binding
Parent: PYL1, truncated, DHFR fusion (Arabidopsis thaliana); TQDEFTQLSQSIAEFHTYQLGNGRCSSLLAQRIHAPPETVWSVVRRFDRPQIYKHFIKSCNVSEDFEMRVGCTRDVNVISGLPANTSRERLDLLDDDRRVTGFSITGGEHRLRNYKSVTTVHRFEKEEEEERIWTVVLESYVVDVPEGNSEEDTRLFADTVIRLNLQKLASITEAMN; partner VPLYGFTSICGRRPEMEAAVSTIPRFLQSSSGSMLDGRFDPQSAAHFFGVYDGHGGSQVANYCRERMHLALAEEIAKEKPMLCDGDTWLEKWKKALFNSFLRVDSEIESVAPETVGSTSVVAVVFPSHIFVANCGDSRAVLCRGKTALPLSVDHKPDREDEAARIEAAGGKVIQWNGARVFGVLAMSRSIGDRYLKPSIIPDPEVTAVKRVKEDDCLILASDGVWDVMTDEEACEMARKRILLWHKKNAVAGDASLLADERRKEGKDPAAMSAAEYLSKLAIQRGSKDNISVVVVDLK
with | relative binding score [%]
(+)-ABA 58 µM | -0.496
(+)-ABA 2500 µM | 63.9
(+)-ABA 200 µM | -0.403
(+)-ABA 0.032 µM | -1.48
(+)-ABA 0.11 µM | -6.75
(+)-ABA 0.39 µM | -7.73

Study 2
Target: Probable WRKY transcription factor 33, C-terminal DNA-binding domain (WRKY33, Arabidopsis thaliana, UniProt Q8S8P5, residues 346-449)
Method: DNA-protein interaction ELISA
Molecule type: double-stranded DNA, one strand shown
Matrix: in vitro, bacterial lysate
Tested at: not given
Notes: whole dsDNA probe, crude lysate protein
Reference: highest signal in screen
Direction: higher = stronger binding
Residues (chain): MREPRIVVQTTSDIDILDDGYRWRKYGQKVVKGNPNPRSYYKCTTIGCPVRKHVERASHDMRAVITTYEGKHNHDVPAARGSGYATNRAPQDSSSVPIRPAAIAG
Oligonucleotide | relative absorbance
AAAAAATGCCGAGACCCCATGCCGGCAAAA | 42 % of maximum
AAAAAAGGGTTTGTCGGGAATTGCCGAAAA | 31.9 % of maximum
AAAAAAGGGTATACTCGCAGCCCCTAAAAA | 36.4 % of maximum
AAAAAATGATGTTGGCGCATTTAAACAAAA | 33.5 % of maximum
AAAAAACCTTACTGTTGATTCTGGTTAAAA | 47.9 % of maximum
AAAAAAACCCGGCCGCCATGGTAGTAAAAA | 46 % of maximum
AAAAAACAACTTGGAGGATTTACAGCAAAA | 37.7 % of maximum
AAAAAATATCATTGTTACCGTTGCTAAAAA | 56.6 % of maximum

Single results of other studies
SMILES | tested on | assay | test system | conditions | scale | measurement | result
CCCc1ncc(C[n+]2ccccc2C)c(N)n1 | Plasmodium berghei | inhibitor | Huh-7, GFP-expressing sporozoites, liver stage | 10 µM, 24 h | reference: untreated control | infection rate | 98.4%
CO[C@H]1CC[C@H](CNc2ccc(S(=O)(=O)NC(=O)c3ccc(N4CCN(CC5=C(c6ccc(Cl)cc6)CC(C)(C)CC5)CC4)cc3Oc3cnc4[nH]ccc4c3)cc2[N+](=O)[O-])CC1 | Receptor-type tyrosine-protein kinase FLT3 (FLT3, Homo sapiens, UniProt P36888, F691L/ITD) | cell-free assay, competition with immobilised ligand |  | 1 µM |  | remaining binding | 88%
